# Results of several laboratories.
# Every numbered part comes from another study and shows a few of its results, in no order.

# Set 1
# Target: TAR DNA-binding protein 43, full length, His tag (TARDBP, Homo sapiens, UniProt Q13148, residues 1-414)
# Technique: RNA Bind-n-Seq
# Molecule type: RNA
# Matrix: in vitro
# Concentration: 20 nM
# Setting: 6-mer, flanks averaged, single round
# Added: 150 mM KCl
# Reference: input library
# Reading: higher = stronger binding
Strand,6-mer enrichment (R)
CUCCGG,0.852
UACGCG,0.964
AAUAGA,0.698
AAAAGU,0.639
UGAUGA,0.848
CUCAAG,0.676
UUAGGU,0.743
CUUAGC,0.601
CCCUCU,0.619
GGAACU,0.982
ACCAAG,0.77
CUAUAA,0.681
CUCGCU,0.562
AUUUAG,0.648
AUGAGC,0.869
CGCCUC,0.627
GCGAUA,0.825
UACCAC,0.613
AGCAUC,0.615
GCGCUU,0.787
CUCCAG,0.676
AGCAAU,0.662
CUUUGG,0.815
CUCGGU,0.721
GUAAUA,0.682

# Set 2
# Target: Interferon regulatory factor 5, full length, phosphomimetic (IRF5, Homo sapiens, UniProt Q13568-2, residues 1-514, S451D/S453D/S456D/S462D)
# Technique: protein-binding microarray
# Molecule type: double-stranded DNA, one strand shown
# Matrix: in vitro
# Concentration: 940 nM top
# Setting: 60-bp whole probe
# Added: salmon DNA 0.4 mg/ml
# Reference: random background probes
# Reading: higher = stronger binding
# Shared flanks, not repeated: GCCTAGCAC … GTCTTGATTCGCTTGACGCTGCTG
Strand,fitted relative affinity [z-score]
TGTGCTTTCCTGATGGTTTTGTGCTAG,0.477
TTAGAACTGAGTCTCGATTTGTGCTAG,2.5
TTAGAACTGGGAACTGGATTAGTGCTA,-0.39
TTAGAAATGAGTTTCGATTAGTGCTAG,8.31
TTAGGACTGGACTATCGGTGAGTGCTA,-0.311
GACGGTTTCGGAATGGGGACGTGCTAG,7.7
TTCGGTATCGGGTATCGGTTAGTGCTA,7.5
GACGGTATCGGACTAGGGACGTGCTAG,2.94
TTAGGACTGCTTATACTTTAGTGCTAG,-0.116
TTAGGACTGGGGTTGCGGTTAGTGCTA,0.0716
TTAAGTTTCGGTTCCGGTTAGTGCTAG,14.7
TTAGGTTTCGGGTTTCGGGTAGTGCTA,10.9
TTCGGACTGGGACTGGGTTAGTGCTAG,-0.234
AACGATCTCAGACTGGAGACGTGCTAG,-0.343
TCAACCATCTAGTTCTGACTGTGCTAG,-0.158
TTAGAACCGAGTTTCGATTAGTGCTAG,7.49
TTAGGTATCGGGACTCGGTTAGTGCTA,4.15
TTAGGACTGGACCCTGGGTTAGTGCTA,-0.629
TTAGGGCTGGACTTTCGGTTAGTGCTA,2.14

# Set 3
# Target: Histone acetyltransferase KAT6A, both winged helices, GST fusion (KAT6A, Homo sapiens, UniProt Q92794, residues 1-181)
# Technique: protein binding microarray
# Molecule type: double-stranded DNA, one strand shown
# Matrix: in vitro
# Concentration: not given
# Setting: 8-mer, flanks averaged, mean of 2 arrays, mostly near background
# Reference: not given
# Reading: higher = stronger binding
# Target sequence (chain): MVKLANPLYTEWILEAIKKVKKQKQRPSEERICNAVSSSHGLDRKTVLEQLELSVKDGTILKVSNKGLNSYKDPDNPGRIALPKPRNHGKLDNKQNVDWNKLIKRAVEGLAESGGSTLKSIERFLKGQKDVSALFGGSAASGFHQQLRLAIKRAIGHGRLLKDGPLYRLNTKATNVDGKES
Strand,E-score
CACGGAAC,0.313
AAAGTATA,-0.189
GTCCCAAC,-0.11
AGCTTGAC,-0.113
ACCGATAT,-0.0338
CCTTAAAA,-0.243
CCATTTCA,-0.228
GTTAGGCA,-0.183
CAGACGGC,0.231
TCTGTCAA,-0.0389
CGATGGGC,-0.0419
GACATCGA,0.0795
TCGCCAGA,-0.128
TAGGAAAA,-0.0753
ATAATCGC,0.147
AGTTCTCA,-0.189
CCATTCCC,-0.105
CCAACGCC,0.135
GTCTTAGA,-0.0757
CATGGCGC,0.252
CGGGTAAC,0.24
CGTAACGC,0.243
CCCAGCTA,-0.293
GCTTACAC,0.0437
AAAAGCGG,0.311

# Set 4
# Target: RNA binding protein fox-1 homolog 2, RRM domain, GST-SBP tag (RBFOX2, Homo sapiens, UniProt O43251-10, residues 100-194)
# Technique: RNA Bind-n-Seq
# Molecule type: RNA
# Matrix: in vitro
# Concentration: 365 nM
# Setting: natural RNA segment, single round, ends assumed
# Reference: no-protein control
# Reading: higher = stronger binding
# Shared flanks, not repeated: GGGAGUUCUACAGUCCGACGAUC … UGGAAUUCUCGGGUGCCAA
# Residues (chain): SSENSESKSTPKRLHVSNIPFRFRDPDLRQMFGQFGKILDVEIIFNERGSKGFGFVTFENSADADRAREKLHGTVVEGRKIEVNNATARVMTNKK
Strand,RBNS enrichment (R)
UUGAUGUCAUGUACUUCCUGUGUACUCUUUAUUUCUAGCAGAGUGAGGAUGUGUUUUGCACGUCUUGCUAUUUGAGCAUGCACAGCUGCUUGUCCUGCUCUCUUCAGGAG,0.622
ACAUAUGUUCUUUUGUCAUUACCCAAUUUAACCUCCCUUUCUCUGAUAUGCCUUGUAGCCAAAGUAUUAAAGGCUGAUGAACAUAGACAAGGGAAAUGCAUUUCUUAGAA,0.942
AGUCAGUCUACCGUAUAGUAACACUGUAUGUCAGUCUACAGACCACACUCUAGUUGUUUUCCAUGAAAGGUAUACAAAUGAAGAAUUUUCUAGCAAAACAUGUUUUUAAC,0.352
GCGUCUAAAAGUAUUGCACACAAAAUCAACUUUUUACUCCAAUUUCCUCCAACUCCAAAACCCAAAGUGUCCGUGCUGUGUCCCUGUGCUUCACUGGGUUUCUCAACCGU,0.705
CACACUGAACUGAAGGGGACUUGCGCGGAUGUGGGAGAUGCAAGCCUUCGCUUUAUUUUUUUAUAACUAUCAACUGCCAUCAUGUUUUGUAAUUUGGGGAUCUUGAUUUC,0.724
AUCCCCGCGUCUGCCUCAGCGGCAGGCCAGUGAGGCGUUUUCCUAGCCUGGAGAUGGGAAAAUAUGCUUGGCAGAGACAGGAAUGCUGUGUGCUUGUUCCAAAUGAGCAG,0.343
CUUCAUAGCAGCAGUAGUGGCUUCUCCAUCCUGUUUUCUGCAACAUUCUAUACAAAACUGUGCUGUGACCUUGCGGUAGGCCUGGAUCUGGCAAAGAGAAUACAAAUGAA,1.24
CAUCUGUGUUGACAUCGGGGCCAGAAAGCACAGCCAGCUAAAUGGGCCUCUGAGGUCACCUUCCCUUCCGGCCUGCUUGCUUUGUCUUACAAGACUUCUUGGCUUUUCCA,0.781

# Some of these lines once more (set 1):
Strand,6-mer enrichment (R)
UACGCG,0.964
AAUAGA,0.698
AAAAGU,0.639
UGAUGA,0.848
CUCAAG,0.676
UUAGGU,0.743
CUUAGC,0.601
